Published values from different studies.
Every numbered part comes from another study and shows a few of its results, in no order. Positions count from the first letter of the parent shown.

Set 1 — target: ATF2, bZIP domain (human); method: DHFR protein complementation; sample: yeast; baseline: wild-type JUN-FOS pair; reading: higher = stronger binding
Notes: single substitutions, most at no-binding floor
Starting sequence: JUN, bZIP domain (human); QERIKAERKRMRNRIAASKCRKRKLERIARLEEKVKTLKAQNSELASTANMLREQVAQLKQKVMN; partner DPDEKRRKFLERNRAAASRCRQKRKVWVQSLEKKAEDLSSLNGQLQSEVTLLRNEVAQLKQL
Variant	binding fitness [natural log]
L45F	-1.53
Q55H	-1.45
Q41E	-1.36
R53N	-1.53
E44R	-1.45
A46T	-1.39
L31A	-1.49
T48I	-1.37
A46R	-1.23
V56S	-1.46
A40H	-1.45
R30L	-1.35
V56T	-1.52
L38V	-1.49
E32R	-1.37
A29T	-1.32
K39S	-1.4
N42H	-1.33
E54G	-1.45
K34A	-1.44
T37N	-1.28
T37E	-1.34
T37V	-1.4
A46P	-1.5

Set 2 — method: DHFR PCA, deep sequencing; sample: yeast; together with: (+)-ABA 1.4 µM; baseline: wild-type fitted maximum; reading: higher = stronger binding
Target: ABI1, truncated, D143A, DHFR fusion (Arabidopsis thaliana)
Notes: methotrexate growth selection, single substitutions
Starting sequence: PYL1, truncated, DHFR fusion (Arabidopsis thaliana); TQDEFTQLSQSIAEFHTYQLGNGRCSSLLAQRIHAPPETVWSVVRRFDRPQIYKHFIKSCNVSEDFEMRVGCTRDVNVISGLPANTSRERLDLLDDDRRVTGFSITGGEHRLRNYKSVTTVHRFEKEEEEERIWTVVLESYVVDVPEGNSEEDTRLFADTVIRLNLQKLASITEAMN
Variant	relative binding score
R46S	14.3%
S42G	43.9%
D65K	43.6%
V78C	38.3%
S59A	34.3%
T119G	-3.15%
E14Y	-7.22%
T173P	-21.7%
T106N	4.63%
V76H	0.715%
G81D	-9.92%
Q19Y	20%
D95Y	-0.487%
S117Q	10.8%
V145T	-7.28%
A158M	11.5%
T160N	8.47%
P50N	-12.5%

Set 3 — target: CCNE1, cyclin fold, Cln2 fusion (human); method: yeast growth competition, sequencing; sample: yeast; notes: strong parent motif; baseline: not given; reading: higher = stronger binding
Starting sequence: E2F1 docking peptide (human); PPVKRRLDFETDH
Variant	normalised enrichment score
PPVKRRLDFETAH [D12A]	6.76
PPVKRRLEFETDH [D8E]	6.29
PPVKSRLDFETDH [R5S]	-0.281
PPVKRRLDFATDH [E10A]	6.28
PPVKRRLDFQTDH [E10Q]	6.16
PPVKRRLDFEQDH [T11Q]	6.06
PPVKRRFDFETDH [L7F]	0.282
PGVKRRLDFETDH [P2G]	6.74
PPVKRRLDFETNH [D12N]	6.48
PPVKRYLDFETDH [R6Y]	2.76
PPVKRRTDFETDH [L7T]	-0.101
PPVKRRLDFETKH [D12K]	6.01
PPVHRRLDFETDH [K4H]	2.91
PPVKRRLDNETDH [F9N]	0.277
PPTKRRLDFETDH [V3T]	5.47
PPVKRRLVFETDH [D8V]	4.98
PPVKRRLDFETHH [D12H]	6.61
PPVKRRLWFETDH [D8W]	6.82
PPVGRRLDFETDH [K4G]	2.05
PPVKRRLDVETDH [F9V]	0.547

Set 4 — method: RNA Bind-n-Seq; molecule type: RNA; sample: in vitro; concentration: 200 nM; notes: whole 134-nt RNA, ends assumed; together with: 150 mM KCl; baseline: input library; reading: higher = stronger binding
Target: Ras GTPase-activating protein-binding protein 1, full length (G3BP1, Homo sapiens, UniProt Q13283)
UniProt Q13283, sequence (whole entry, looked up): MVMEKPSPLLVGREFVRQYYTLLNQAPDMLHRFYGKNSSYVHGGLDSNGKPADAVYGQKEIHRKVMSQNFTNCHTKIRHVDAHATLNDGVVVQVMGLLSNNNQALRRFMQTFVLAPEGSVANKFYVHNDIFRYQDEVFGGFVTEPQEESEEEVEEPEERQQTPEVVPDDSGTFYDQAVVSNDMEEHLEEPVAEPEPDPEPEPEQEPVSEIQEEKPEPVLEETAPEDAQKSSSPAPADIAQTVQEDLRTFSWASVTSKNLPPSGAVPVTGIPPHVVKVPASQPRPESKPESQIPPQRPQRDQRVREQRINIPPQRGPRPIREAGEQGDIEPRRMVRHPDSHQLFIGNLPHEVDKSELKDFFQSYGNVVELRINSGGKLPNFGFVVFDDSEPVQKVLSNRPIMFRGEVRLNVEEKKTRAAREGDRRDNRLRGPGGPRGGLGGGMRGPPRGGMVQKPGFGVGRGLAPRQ
All sequences stand within: GGGAGUUCUACAGUCCGACGAUC … UGGAAUUCUCGGGUGUCAAGG
Oligonucleotide	log2 enrichment
GUCCUGUGCUACACAUCGUAUGUACCGAAUCGGGGAAAGGGGAAAGGGGAAAAAGGGGAAAGUAUUAUGUUACGCCGUUCGGAUCUGCAC	0.381
CCUGUGCUACACAUCGUAUGUACCGAAUCGGGGAAAAAAGGGAAAAAAGGAAAAAAGGGGAAAGUAUUAUGUUACGCCGUUCGGAUCUGC	-0.605
UCAAGUCCUGUGCUACACAUCGUAUGUACCGAAUCGGAAAGGGAAAGGAAAGGGAAAGUAUUAUGUUACGCCGUUCGGAUCUGCACUUCC	-0.804
UCAUGUAUAGACAACGCCAUUAUUGACGAGAUCACUCCCAAGCGGAUUGGAGAUUGUCCCAAUAUUUAGACCUAUAGCAAGGCCUUGGGA	0.794
ACCAUGCAGGUGGGCAUCUUUGGGAAGUGGCGCAAGGGGGGGAUAGGGAGGGGGGUAACACUUUGGGAACAGGUGGUCCCAGGUCGUUUC	1.42
GUCCUGUGCUACACAUCGUAUGUACCGAAUCGGGGAAAAAGGGGAGGGGUUUUUGGGGAAAGUAUUAUGUUACGCCGUUCGGAUCUGCAC	0.205
UUCUCUGCCGGCUCAGAGGAGAGGAGACGCCGUGAGCGGGACGACCAGAUGUACCGAGAGCGGCUGCGCACCUUGCUGGUCAUCGCGGUU	-1.66
CAAGUCCUGUGCUACACAUCGUAUGUACCGAAUCGGGGUUUGGGGUUUGGUUUGGAAAGUAUUAUGUUACGCCGUUCGGAUCUGCACUUC	0.00931
GUCCUGUGCUACACAUCGUAUGUACCGAAUCGGUUUUUUUGGUUUUUUUGGUUUUUGGAAAGUAUUAUGUUACGCCGUUCGGAUCUGCAC	-1.18

Set 5 — method: protein-binding microarray; molecule type: hairpin DNA; sample: in vitro; concentration: not given; baseline: not given; reading: higher = stronger binding
Target: Runt-related transcription factor 1, full length (RUNX1, Homo sapiens, UniProt Q01196-8, residues 1-480)
Notes: whole hairpin DNA, median over replicate spots
Oligonucleotide	median fluorescence [a.u.]
GAGGCCTGCGGCGGTTGGCCTCCTGGCCAACCGCCGCAGGCCTCACACTC	2690
GAGGCCGGTTGTGGTTGGCCTCCTGGCCAACCACAACCGGCCTCACACTC	3650
GAGGCCCAACCGCAACAGCCTCCTGGCTGTTGCGGTTGGGCCTCACACTC	5520
GAGGCCTGTCCGGGTTGGCCTCCTGGCCAACCCGGACAGGCCTCACACTC (5mC at 11 33)	1740
CTCAGCGCTGTGGGCTGGACTCCTGTCCAGCCCACAGCGCTGAGACACTC (5mC at 6)	1840
GAGGCCCAACCGCAAAAGCCTCCTGGCTTTTGCGGTTGGGCCTCACACTC	7010
GCGGCCTGTCGCGGTTGGCCTCCTGGCCAACCGCGACAGGCCGCACACTC (5mC at 2)	2790
CTCAGTTCGGTGGGCTGGACTCCTGTCCAGCCCACCGAACTGAGACACTC (5mC at 8)	1950
GAGGCCTGTTGGGGTTGGCCTCCTGGCCAACCCCAACAGGCCTCACACTC (5mC at 33)	1850
GAGGCCTGCGGCGGTTGGCCTCCTGGCCAACCGCCGCAGGCCTCACACTC (5mC at 35)	2750
GAGGCCTGTTGTGGTGGGCCTCCTGGCCCACCACAACAGGCCTCACACTC	2330
CTCAGTTCTGTGGGCTGGACTCCTGTCCAGCCCACAGAACTGAGACACTC (5mC at 8)	2080
GAGGCCTGTCGCGGTTGGCCTCCTGGCCAACCGCGACAGGCCTCACACTC (5mC at 28)	2790
GAGGCCTGTCGCCGTTGGCCTCCTGGCCAACGGCGACAGGCCTCACACTC (5mC at 31)	1710
GAGGCCTGTCGCGATTGGCCTCCTGGCCAATCGCGACAGGCCTCACACTC	1620
GAGGCCTGTCCGGGTTGGCCTCCTGGCCAACCCGGACAGGCCTCACACTC (5mC at 33)	1730
GAGGCCTGTTGCGGCGGGCCTCCTGGCCCGCCGCAACAGGCCTCACACTC (5mC at 29)	2180
GAGGCCCGTTGCGGTTGGCCTCCTGGCCAACCGCAACGGGCCTCACACTC (5mC at 7 37)	6030

Excerpt of the above (set 4):
Oligonucleotide	log2 enrichment
GUCCUGUGCUACACAUCGUAUGUACCGAAUCGGGGAAAGGGGAAAGGGGAAAAAGGGGAAAGUAUUAUGUUACGCCGUUCGGAUCUGCAC	0.381
CCUGUGCUACACAUCGUAUGUACCGAAUCGGGGAAAAAAGGGAAAAAAGGAAAAAAGGGGAAAGUAUUAUGUUACGCCGUUCGGAUCUGC	-0.605
UCAAGUCCUGUGCUACACAUCGUAUGUACCGAAUCGGAAAGGGAAAGGAAAGGGAAAGUAUUAUGUUACGCCGUUCGGAUCUGCACUUCC	-0.804
UCAUGUAUAGACAACGCCAUUAUUGACGAGAUCACUCCCAAGCGGAUUGGAGAUUGUCCCAAUAUUUAGACCUAUAGCAAGGCCUUGGGA	0.794
ACCAUGCAGGUGGGCAUCUUUGGGAAGUGGCGCAAGGGGGGGAUAGGGAGGGGGGUAACACUUUGGGAACAGGUGGUCCCAGGUCGUUUC	1.42
GUCCUGUGCUACACAUCGUAUGUACCGAAUCGGGGAAAAAGGGGAGGGGUUUUUGGGGAAAGUAUUAUGUUACGCCGUUCGGAUCUGCAC	0.205
UUCUCUGCCGGCUCAGAGGAGAGGAGACGCCGUGAGCGGGACGACCAGAUGUACCGAGAGCGGCUGCGCACCUUGCUGGUCAUCGCGGUU	-1.66
CAAGUCCUGUGCUACACAUCGUAUGUACCGAAUCGGGGUUUGGGGUUUGGUUUGGAAAGUAUUAUGUUACGCCGUUCGGAUCUGCACUUC	0.00931
GUCCUGUGCUACACAUCGUAUGUACCGAAUCGGUUUUUUUGGUUUUUUUGGUUUUUGGAAAGUAUUAUGUUACGCCGUUCGGAUCUGCAC	-1.18
